Measured values gathered from unrelated publications.
Each numbered part is a random draw from the data of one study; scales do not carry over between parts. pEC50: −log10 of the molar value.
Chain of UniProt O96017 (whole entry, looked up): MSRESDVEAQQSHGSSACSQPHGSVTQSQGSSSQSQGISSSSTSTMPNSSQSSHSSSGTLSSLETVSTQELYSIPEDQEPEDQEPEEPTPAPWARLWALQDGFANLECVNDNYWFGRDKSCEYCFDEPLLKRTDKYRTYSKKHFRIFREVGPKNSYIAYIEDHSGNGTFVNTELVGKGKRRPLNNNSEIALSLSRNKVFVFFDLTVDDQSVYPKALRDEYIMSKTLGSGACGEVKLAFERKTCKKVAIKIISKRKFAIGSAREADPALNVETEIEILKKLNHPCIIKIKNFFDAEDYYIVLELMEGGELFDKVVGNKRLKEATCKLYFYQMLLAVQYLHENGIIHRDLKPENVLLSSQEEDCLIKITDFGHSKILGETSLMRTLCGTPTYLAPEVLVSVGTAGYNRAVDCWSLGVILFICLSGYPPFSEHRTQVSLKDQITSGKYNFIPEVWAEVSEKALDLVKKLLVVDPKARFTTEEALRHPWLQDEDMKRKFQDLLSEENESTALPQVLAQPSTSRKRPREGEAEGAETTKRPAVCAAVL
Chain of UniProt P51955 (whole entry, looked up): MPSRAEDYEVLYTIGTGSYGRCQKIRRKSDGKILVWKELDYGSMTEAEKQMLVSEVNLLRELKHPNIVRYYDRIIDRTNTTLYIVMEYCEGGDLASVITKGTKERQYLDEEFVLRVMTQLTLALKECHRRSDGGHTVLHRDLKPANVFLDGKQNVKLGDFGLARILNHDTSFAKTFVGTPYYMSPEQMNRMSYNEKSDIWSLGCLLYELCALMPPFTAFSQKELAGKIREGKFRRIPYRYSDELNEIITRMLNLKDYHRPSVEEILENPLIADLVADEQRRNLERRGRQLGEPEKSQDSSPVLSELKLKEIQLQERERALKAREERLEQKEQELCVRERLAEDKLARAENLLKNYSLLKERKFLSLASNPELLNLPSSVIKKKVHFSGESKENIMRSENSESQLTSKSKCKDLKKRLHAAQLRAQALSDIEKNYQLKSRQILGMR
Chain of UniProt Q5S007 (whole entry, looked up): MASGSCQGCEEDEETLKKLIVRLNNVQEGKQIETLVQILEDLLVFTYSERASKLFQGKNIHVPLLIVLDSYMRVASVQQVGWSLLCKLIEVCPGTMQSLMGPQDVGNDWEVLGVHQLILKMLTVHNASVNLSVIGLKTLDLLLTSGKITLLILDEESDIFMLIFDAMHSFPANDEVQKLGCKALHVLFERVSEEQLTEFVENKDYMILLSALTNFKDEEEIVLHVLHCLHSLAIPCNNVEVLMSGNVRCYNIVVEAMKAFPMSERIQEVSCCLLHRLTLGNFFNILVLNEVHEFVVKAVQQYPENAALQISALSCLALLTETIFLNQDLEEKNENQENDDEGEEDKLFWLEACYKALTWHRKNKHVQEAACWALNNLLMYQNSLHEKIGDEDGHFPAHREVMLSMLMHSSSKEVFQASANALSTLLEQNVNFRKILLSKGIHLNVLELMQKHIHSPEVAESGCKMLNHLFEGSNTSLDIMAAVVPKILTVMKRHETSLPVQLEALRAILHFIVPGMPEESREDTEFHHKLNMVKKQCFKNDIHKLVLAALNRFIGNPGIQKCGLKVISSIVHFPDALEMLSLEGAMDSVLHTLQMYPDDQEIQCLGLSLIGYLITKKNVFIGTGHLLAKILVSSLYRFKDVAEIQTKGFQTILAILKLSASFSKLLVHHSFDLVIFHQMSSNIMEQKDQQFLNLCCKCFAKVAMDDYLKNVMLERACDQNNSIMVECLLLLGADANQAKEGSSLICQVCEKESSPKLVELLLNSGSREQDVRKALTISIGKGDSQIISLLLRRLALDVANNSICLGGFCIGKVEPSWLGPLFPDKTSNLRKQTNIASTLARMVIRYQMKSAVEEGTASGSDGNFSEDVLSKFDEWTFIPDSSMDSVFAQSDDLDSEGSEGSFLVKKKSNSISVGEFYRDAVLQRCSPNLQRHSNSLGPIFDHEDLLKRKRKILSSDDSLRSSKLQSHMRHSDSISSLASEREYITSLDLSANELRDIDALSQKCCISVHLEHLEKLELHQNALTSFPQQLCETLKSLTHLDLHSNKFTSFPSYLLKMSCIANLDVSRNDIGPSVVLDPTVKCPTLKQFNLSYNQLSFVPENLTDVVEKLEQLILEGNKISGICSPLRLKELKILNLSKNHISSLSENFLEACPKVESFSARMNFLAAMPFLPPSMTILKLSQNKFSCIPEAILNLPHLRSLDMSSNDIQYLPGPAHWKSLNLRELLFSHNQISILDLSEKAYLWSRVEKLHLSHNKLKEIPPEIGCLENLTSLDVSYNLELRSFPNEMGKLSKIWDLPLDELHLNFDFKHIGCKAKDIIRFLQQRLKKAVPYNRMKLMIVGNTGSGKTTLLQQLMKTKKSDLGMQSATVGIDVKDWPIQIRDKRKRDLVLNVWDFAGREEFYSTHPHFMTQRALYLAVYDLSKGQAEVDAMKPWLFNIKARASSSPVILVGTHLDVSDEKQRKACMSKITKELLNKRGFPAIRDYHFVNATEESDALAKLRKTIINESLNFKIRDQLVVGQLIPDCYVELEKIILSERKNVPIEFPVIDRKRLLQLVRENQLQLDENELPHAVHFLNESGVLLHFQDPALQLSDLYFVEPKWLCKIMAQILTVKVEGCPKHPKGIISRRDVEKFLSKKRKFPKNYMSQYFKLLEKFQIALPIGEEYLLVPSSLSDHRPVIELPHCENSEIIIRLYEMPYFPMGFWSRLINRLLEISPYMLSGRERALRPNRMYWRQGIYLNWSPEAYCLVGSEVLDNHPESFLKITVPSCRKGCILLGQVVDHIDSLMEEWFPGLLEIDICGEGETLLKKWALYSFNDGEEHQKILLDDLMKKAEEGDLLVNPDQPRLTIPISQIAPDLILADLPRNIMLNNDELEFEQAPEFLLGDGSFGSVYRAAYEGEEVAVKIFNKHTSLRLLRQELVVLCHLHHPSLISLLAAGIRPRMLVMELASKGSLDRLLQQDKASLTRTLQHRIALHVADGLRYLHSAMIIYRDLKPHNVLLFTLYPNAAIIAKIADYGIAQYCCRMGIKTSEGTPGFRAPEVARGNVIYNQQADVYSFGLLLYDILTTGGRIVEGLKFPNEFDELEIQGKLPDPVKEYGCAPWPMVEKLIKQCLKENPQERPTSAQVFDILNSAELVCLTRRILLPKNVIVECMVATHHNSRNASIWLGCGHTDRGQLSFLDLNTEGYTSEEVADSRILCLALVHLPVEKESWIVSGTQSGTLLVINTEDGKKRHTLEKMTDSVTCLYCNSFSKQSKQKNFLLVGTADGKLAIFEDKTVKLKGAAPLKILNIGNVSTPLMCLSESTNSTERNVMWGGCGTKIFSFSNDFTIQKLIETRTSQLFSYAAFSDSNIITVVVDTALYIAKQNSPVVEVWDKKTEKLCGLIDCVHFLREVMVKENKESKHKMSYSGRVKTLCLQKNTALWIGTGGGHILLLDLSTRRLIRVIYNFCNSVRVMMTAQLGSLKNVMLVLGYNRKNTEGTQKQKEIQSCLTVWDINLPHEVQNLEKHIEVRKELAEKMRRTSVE
Chain of UniProt Q8NE63 (whole entry, looked up): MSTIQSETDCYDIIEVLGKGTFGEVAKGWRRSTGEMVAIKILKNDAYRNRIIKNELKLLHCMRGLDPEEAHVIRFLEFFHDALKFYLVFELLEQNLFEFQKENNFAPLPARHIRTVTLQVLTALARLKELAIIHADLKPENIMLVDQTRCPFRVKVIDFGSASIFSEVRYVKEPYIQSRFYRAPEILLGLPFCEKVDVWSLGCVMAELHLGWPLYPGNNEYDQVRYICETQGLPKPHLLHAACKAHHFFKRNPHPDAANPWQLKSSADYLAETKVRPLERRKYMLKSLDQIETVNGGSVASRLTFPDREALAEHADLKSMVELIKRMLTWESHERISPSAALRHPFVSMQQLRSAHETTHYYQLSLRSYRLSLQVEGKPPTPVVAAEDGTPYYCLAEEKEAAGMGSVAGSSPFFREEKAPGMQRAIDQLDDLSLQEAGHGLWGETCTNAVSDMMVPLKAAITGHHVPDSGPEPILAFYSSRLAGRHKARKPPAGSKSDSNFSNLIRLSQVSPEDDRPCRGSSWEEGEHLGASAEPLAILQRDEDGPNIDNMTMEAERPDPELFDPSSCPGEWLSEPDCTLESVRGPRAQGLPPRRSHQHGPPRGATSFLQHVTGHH
Chain of UniProt P28482 (whole entry, looked up): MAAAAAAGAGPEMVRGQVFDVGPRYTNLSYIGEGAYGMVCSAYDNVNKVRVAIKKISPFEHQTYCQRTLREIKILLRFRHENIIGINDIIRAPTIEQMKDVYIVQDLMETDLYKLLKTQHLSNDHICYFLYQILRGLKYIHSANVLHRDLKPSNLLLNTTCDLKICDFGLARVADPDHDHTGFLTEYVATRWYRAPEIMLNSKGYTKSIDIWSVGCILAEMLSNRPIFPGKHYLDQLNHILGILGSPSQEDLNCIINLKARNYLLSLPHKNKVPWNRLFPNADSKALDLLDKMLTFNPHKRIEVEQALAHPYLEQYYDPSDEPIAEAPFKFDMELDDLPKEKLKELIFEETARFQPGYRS

Block 1
Organism: Plasmodium berghei
Action: inhibitor
Cells: Huh-7
Strain: GFP-expressing sporozoites, liver stage
Tested at: 10 µM
Time: 24 h
Relative to: untreated control
Endpoint: infection rate
O=C(O)C1=C(CSc2nnnn2CS(=O)(=O)O)CS[C@@H]2[C@H](NC(=O)[C@H](O)c3ccccc3)C(=O)N12: 93.5%
CN1CCN(C(c2ccccc2)c2ccccc2)CC1: 105%
O=C(Nc1ccc(C(=O)O)c(O)c1)c1ccccc1: 81.7%
NC(=O)c1ccc([N+](=O)[O-])cc1Cl: 104%
C[C@]12CC[C@@H]3c4ccc(O)cc4CC[C@H]3[C@@H]1C[C@@H](O)[C@@H]2O: 107%
NCC(=O)CCC(=O)O: 113%

Block 2
Cell line: HaCaT
Tested at: 100 µM
Time: 60 h
Endpoint: viability
CC1(C)S[C@@H]2[C@H](NC(=O)C(C(=O)O)c3ccccc3)C(=O)N2[C@H]1C(=O)O (stereo partly shown): 145%
CN1C2=CC(=O)/C(=N\NC(N)=O)C=C2CC1S(=O)(=O)O (stereo not shown): 139%
O=C(NCCN1CCOCC1)c1ccc(Cl)cc1: 156%
CCOC(=O)[C@H](CCc1ccccc1)N[C@@H](C)C(=O)N1Cc2ccccc2C[C@H]1C(=O)O: 134%
COC(=O)c1ccccc1O: 126%
CCCCC(C)(O)C/C=C/[C@H]1[C@H](O)CC(=O)[C@@H]1CCCCCCC(=O)OC (mixture of isomers): 127%
C[C@H]1C[C@@H]2[C@H]([C@@H](O)C[C@@]3(C)[C@H]2CC[C@]3(O)C(=O)CO)[C@@]2(C)C=CC(=O)C=C12: 126%

Block 3
Target: Beta-1 adrenergic receptor (ADRB1, Homo sapiens, UniProt P08588)
Chain of UniProt P08588 (whole entry, looked up): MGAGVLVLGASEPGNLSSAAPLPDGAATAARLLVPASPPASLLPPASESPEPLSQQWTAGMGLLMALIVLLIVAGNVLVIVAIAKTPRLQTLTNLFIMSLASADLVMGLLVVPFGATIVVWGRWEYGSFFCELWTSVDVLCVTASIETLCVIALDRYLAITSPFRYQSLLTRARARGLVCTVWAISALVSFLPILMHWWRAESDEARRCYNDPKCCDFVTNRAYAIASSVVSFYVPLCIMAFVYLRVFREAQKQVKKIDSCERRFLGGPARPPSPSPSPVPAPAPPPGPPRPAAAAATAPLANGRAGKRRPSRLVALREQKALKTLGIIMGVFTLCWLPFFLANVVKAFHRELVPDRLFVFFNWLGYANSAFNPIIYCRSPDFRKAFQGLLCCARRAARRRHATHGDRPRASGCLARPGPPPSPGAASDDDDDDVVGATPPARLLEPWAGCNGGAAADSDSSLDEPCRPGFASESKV
Action: agonist
Endpoint: pEC50
OCCc1ccc(O)cc1: ≤ 4.00
CCOc1cccc(-c2cc(-c3nnc(S)n3CC)c3ccccc3n2)c1: ≤ 4.00
Cc1cccc2nc(C(=O)N3CCN(c4cccc(Cl)c4)CC3)cn12: ≤ 4.00
CN(C)CC(O)COc1ccc(CN2CCC(N3CCOC3=O)CC2)cc1 (stereo not shown): ≤ 4.00
Cc1nn(C)c(C)c1CN(Cc1ccc2c(C)cc(=O)oc2c1)C1CC1: ≤ 4.00
O=C1COc2ccc(-c3ccoc3)nc2CN1: ≤ 4.00
Cc1ccc(-c2nnc(-c3cc(-c4ccccc4)nc4ccccc34)o2)cc1: ≤ 4.00
CN(C)c1ccc(-c2nnnn2[C@H]2CO[C@H]3[C@@H]2OC[C@@H]3N[S+](=O)([O-])c2cccc3cccnc23)cc1: ≤ 4.00
COc1cc(CNCc2ccc(C)c(F)c2F)ccc1OCC(O)CN1CCC(O)CC1 (stereo not shown): 5.65

Block 4
SMILES: CO[C@H]1CC[C@H](CNc2ccc(S(=O)(=O)NC(=O)c3ccc(N4CCN(CC5=C(c6ccc(Cl)cc6)CC(C)(C)CC5)CC4)cc3Oc3cnc4[nH]ccc4c3)cc2[N+](=O)[O-])CC1
Observed: cell-free assay
Technique: competition with immobilised ligand
Tested at: 1 µM
Endpoint: remaining binding
Serine/threonine-protein kinase WNK1 (WNK1, Homo sapiens, UniProt Q9H4A3): 100%
Ribosomal protein S6 kinase alpha-6, N-terminal kinase domain (RPS6KA6, Homo sapiens, UniProt Q9UK32): 67%
Insulin receptor (INSR, Homo sapiens, UniProt P06213): 91%
Fibroblast growth factor receptor 3 (FGFR3, Homo sapiens, UniProt P22607): 95%
Serine/threonine-protein kinase Chk2 (CHEK2, Homo sapiens, UniProt O96017): 89%
Transient receptor potential cation channel subfamily M member 6 (TRPM6, Homo sapiens, UniProt Q9BX84): 87%
Platelet-derived growth factor receptor alpha (PDGFRA, Homo sapiens, UniProt P16234): 100%
Leucine-rich repeat serine/threonine-protein kinase 2 (LRRK2, Homo sapiens, UniProt Q5S007): 100%
5'-AMP-activated protein kinase catalytic subunit alpha-1 (PRKAA1, Homo sapiens, UniProt Q13131): 73%
Mitogen-activated protein kinase 1 (MAPK1, Homo sapiens, UniProt P28482): 84%
Serine/threonine-protein kinase Nek2 (NEK2, Homo sapiens, UniProt P51955): 100%
Muscle, skeletal receptor tyrosine-protein kinase (MUSK, Homo sapiens, UniProt O15146): 100%
Cyclin-dependent kinase-like 3 (CDKL3, Homo sapiens, UniProt Q8IVW4): 83%
Ephrin type-A receptor 4 (EPHA4, Homo sapiens, UniProt P54764): 88%
Homeodomain-interacting protein kinase 4 (HIPK4, Homo sapiens, UniProt Q8NE63): 4.4%

For quick reference, copied from above (block 2):
COC(=O)c1ccccc1O: 126%
CC1(C)S[C@@H]2[C@H](NC(=O)C(C(=O)O)c3ccccc3)C(=O)N2[C@H]1C(=O)O (stereo partly shown): 145%
CCOC(=O)[C@H](CCc1ccccc1)N[C@@H](C)C(=O)N1Cc2ccccc2C[C@H]1C(=O)O: 134%
CCCCC(C)(O)C/C=C/[C@H]1[C@H](O)CC(=O)[C@@H]1CCCCCCC(=O)OC (mixture of isomers): 127%
